Experimental data collected from several papers.
Every numbered part comes from another study and shows a few of its results, in no order. Changes are numbered by the printed parent chain.

Sample 1
Target: Centromere-binding protein 1, full length, N-terminal tag (CBF1, Saccharomyces cerevisiae, UniProt P17106, residues 1-351)
Sequence of UniProt P17106 (whole entry, looked up): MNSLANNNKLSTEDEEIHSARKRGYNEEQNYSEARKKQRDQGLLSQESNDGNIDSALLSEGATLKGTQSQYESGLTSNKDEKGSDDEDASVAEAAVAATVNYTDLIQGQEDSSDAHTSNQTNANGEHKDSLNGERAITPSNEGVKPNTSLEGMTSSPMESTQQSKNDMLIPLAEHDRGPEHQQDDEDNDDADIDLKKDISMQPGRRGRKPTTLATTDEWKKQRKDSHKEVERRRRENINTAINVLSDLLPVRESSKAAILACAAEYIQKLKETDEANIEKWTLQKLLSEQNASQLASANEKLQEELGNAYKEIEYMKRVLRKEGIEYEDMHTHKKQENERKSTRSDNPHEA
Method: protein-binding microarray
Molecule type: double-stranded DNA, one strand shown
Medium: in vitro
Concentration: 0.8 µM
Setting: whole 60-bp probe, no competitor
Reading: higher = stronger binding
Constant ends, left off below: … GTCTTGATTCGCTTGACGCTGCTG
Oligonucleotide	fluorescence intensity [a.u.]
GAATACATCGACAAACATGTGCAACAGCTCTAATAG	625
CTAAGTATACCTTGTGACCTGAAGATTTACTTTTTC	1040
GAATGTGGACCCCTACAGGCGTGATTTTCTGTCTAG	540
GAACGTAGGATAGGTTACATGATCATTGCAATATAG	545
GAAATAATAAGCACGCACGAGATGTCCTCCGATTAG	853
CCTAACTACTATAATGACATCAGATAGCTTCGTACA	546
GAACTCCGATTTTGTCACGCAGCGTTCGTTTTTTAG	697
TGTACGAAGCTATGTCACATTCGTATAGTAGTTAGG	549

Sample 2
Target: POU, POU domain (Salpingoeca helianthica)
Method: Spec-seq
Molecule type: double-stranded DNA, one strand shown
Medium: in vitro
Concentration: not given
Setting: whole probe, mean of replicates
Reference: not given
Reading: lower = stronger binding
Constant ends, left off below: GAGTCGTCTCGTCAGCAC … CCGTAGAGCACTCAGGTC
Target sequence (chain): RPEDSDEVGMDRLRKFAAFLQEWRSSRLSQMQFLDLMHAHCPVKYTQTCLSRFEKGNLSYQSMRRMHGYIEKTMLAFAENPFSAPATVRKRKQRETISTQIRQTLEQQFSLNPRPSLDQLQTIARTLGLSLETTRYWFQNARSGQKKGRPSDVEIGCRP
Oligonucleotide	relative binding energy [ln ratio]
TAGTTAAT	-0.821
ATTGGTAT	0.926
ATGCGTCA	1.32
ATGCTAAA	0.688
ATGGCTAT	1.31
TCCGTAAT	0.626
AAGCTAAT	0.688
ATGCGGTT	1.39

Sample 3
Target: RNA binding protein fox-1 homolog 2, RRM domain, GST-SBP tag (RBFOX2, Homo sapiens, UniProt O43251-10, residues 100-194)
Method: RNA Bind-n-Seq
Molecule type: RNA
Medium: in vitro
Concentration: 365 nM
Setting: natural RNA segment, single round, ends assumed
Reference: no-protein control
Reading: higher = stronger binding
Constant ends, left off below: GGGAGUUCUACAGUCCGACGAUC … UGGAAUUCUCGGGUGCCAA
Construct (chain): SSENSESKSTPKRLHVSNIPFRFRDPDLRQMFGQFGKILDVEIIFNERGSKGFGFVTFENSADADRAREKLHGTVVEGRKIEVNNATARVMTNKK
Oligonucleotide	RBNS enrichment (R)
CCACUGCACUCCAGCCUGGGGUGAUAGAACAAGACCCUGUCUCAAAAAAAAAAAAAACAACAAAAACUUAGAAUUGAGGAGUUGUACCUCCAUUGGCUUCCUCACUCCAA	0.812
GCAAGAAACAGUGUGAGCUACUGCCACGCUGAAAACUACCUGUGGGUUAAGGAUGUAGUUCCUUUGUAAGGGUGGGCAGGCCUCGUAAGAAAGAUGUAGCAGCAUAUUCA	2.79
UCUGUAAAAUUUGUUUAGAAGUACGUUUUUGCAUUAUUCAUAUGCUUCCCAGAGAAGCUCAUUUAGUUAGAAAAUAAGGCAAGUUUUGAAGCCUGCUAAAUGAAGAGACU	1.78
AUGCUAGACAUGGAGAACUUGCUCUGUUUGUCCUUUCUACAUUUCUGUAGUUAACAGAACACUGUAAUGUGCCUUGCAGCUUAGUAACUUGUAAUAAAUUCAAUUGAUAU	0.763
CCCUGAUUACACAGAACCUUUCUGGGCUACUUGGAGCAUCACGAAUAGUCUUUCCUGUACUUACCAGAUUUCAAGUAUUCAUAACUUGACUCCCUAAGUGUACAAGUUGG	0.279
AUACUUCAGCUGUUCUUUGCCUGCACUUAUUAUAUACAUUGUUUCAUGCACAGUUAUUACAAAUCAGGAGCGUUUGGAAAGUUCACUGGGACGAGUGUGAUUUUUUGUUG	0.39
CCAUUACUGCAUUGUCAAAUUCCUACUGACGACAUUAUAACUGUACGGGAGCUUAACUUUAUAAGGAAAUGUAUUUUGACACUGAUAUCUUAUUAAAGUAUUCUGAUCCU	0.412
GUUUUUAUGCCUUUGGCUAUUAUGAAAGAGGUUAGUGUGUUCCCUGCAAUAAACUUGUUCCUGAGAACUGUCCUCAUAGCGGGAGGGGUAUGCAGGGAAAACCCCGCCUA	0.581

Other studies, line by line
Starting sequence: viral docking peptide; KGVKRKLFAEDSS; partner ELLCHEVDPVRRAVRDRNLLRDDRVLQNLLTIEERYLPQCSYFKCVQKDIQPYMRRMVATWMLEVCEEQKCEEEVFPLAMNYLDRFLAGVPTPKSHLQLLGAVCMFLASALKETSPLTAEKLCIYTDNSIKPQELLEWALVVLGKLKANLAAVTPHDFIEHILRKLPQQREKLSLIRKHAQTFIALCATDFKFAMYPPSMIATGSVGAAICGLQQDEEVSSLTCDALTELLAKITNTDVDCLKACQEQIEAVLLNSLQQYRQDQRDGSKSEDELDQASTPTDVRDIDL
Variant	target	assay	system	setting	how to read	measurement	value
V3H	CCND2, cyclin fold, Cln2 fusion (human)	yeast growth competition, sequencing	yeast	weak parent motif	reference: not given, higher = stronger binding	normalised enrichment score	0.0968
